Results gathered from unrelated publications.
Compare with care: the assays were run in different laboratories. ± marks the error that the study gave.

N#Cc1cccc(-c2ccc(=O)n(Cc3cccc(-c4ncc(OCC5CCN(CC(=O)NCCOCCNc6cccc7c6C(=O)N(C6CCC(=O)NC6=O)C7=O)CC5)cn4)c3)n2)c1 (stereo not shown)  IC50 (Hs746T; cell growth or viability, CCK-8; 72 h): 0.0247 µM
O=C1c2ccc3c4cccc5cccc(c6ccc(c2c36)C(=O)N1CCN1CCCCC1)c54  IC50 (A549, PC-3, HL-60; cytotoxicity, SRB; 72 h, range over three lines): 36.9 to 50.9 µM
COc1ccc([C@@H]2CC(=O)c3c(O)cc(O[C@@H]4O[C@H](CO[C@@H]5O[C@@H](C)[C@H](O)[C@@H](O)[C@H]5O)[C@@H](O)[C@H](O)[C@H]4O)cc3O2)cc1O  IC50 (A549; cell growth or viability, trypan blue; 72 h): 92.9 µg/mL
CN1CCCC1CS(=O)(=O)NC12CCCC(C)(CCC3C1CC3(C)C)C2 (stereo not shown)  IC50 (NCM460; cell growth or viability, CCK-8; 72 h): 28.1 µM
N=C(N)Nc1nc2ccccc2[nH]1  IC50 (BPH-1; cell growth or viability, MTT; 24 h): > 500 µM
CN1CCN(c2ccc(Nc3ncc(Cl)c(Nc4ccccc4NS(=O)(=O)C4CC4)n3)cc2)CC1  IC50 (Ba/F3 EGFR L858R/T790M/C797S; cell growth, CCK-8; 48 h): 0.018 µM
COc1ccc2c(c1OC)OCc1sc(NN=C(Cc3ccccc3[N+](=O)[O-])C(=O)O)nc1-2 (mixture of isomers)  IC50 (CRL-2351; cell growth, sulforhodamine B; 5 days): > 20 µM
CCCCCCCCSc1nc(N)c2c(F)c(C#N)c(F)c(Cl)c2n1  IC50 (SGC-7901; cell growth or viability, MTT; 96 h): > 100 µM
N#Cc1cccc(-c2ccc(=O)n(Cc3cccc(-c4ncc(OCC5CCN(CC(=O)N6CCN(c7ccc8c(c7)C(=O)N(C7CCC(=O)NC7=O)C8=O)CC6)CC5)cn4)c3)n2)c1 (stereo not shown)  IC50 (Hs746T; cell growth or viability, CCK-8; 72 h): 0.0035 µM
CC/C(=C(\c1ccc(O)cc1)c1ccc(OCCN(C)CCOCCOCCOCCN(C)CCOc2ccc(/C(=C(/CC)c3ccccc3)c3ccc(O)cc3)cc2)cc1)c1ccccc1  IC50 (MDA-MB-231 (ER-negative); cell growth; 96 h): 1.95 µM
CCN(CC)CCN1C(=O)c2ccc3c4cccc5cccc(c6ccc(c2c36)C1=O)c54  IC50 (A549, PC-3, HL-60; cytotoxicity, SRB; 72 h, range over three lines): 3.1 to 7.4 µM
COc1c(O)cc2oc3cc4c(c(O)c3c(=O)c2c1CC(O)C(C)(C)O)CC(O)O4 (stereo not shown)  IC50 (HL-60, SMMC-7721, A549, MCF7, SW480; cytotoxicity; all lines): > 40 µM
CNCCNC(=O)c1cn(C23CCCC(C)(CCC4C2CC4(C)C)C3)nn1 (stereo not shown)  IC50 (NCM460; cell growth or viability, CCK-8; 72 h): 33.7 µM
CC(C)(C)c1nc(-c2ccc(NC(=O)c3cccs3)cc2Cl)no1  IC50 (MRC5 lung fibroblasts; cytotoxicity, LDH release): > 30 µM
[Cl][Au-][c]1n(-c2c(C(c3ccccc3)c3ccccc3)cc(C(c3ccccc3)c3ccccc3)cc2C(c2ccccc2)c2ccccc2)c2c([n+]1-c1c(C(c3ccccc3)c3ccccc3)cc(C(c3ccccc3)c3ccccc3)cc1C(c1ccccc1)c1ccccc1)-c1cccc3cccc-2c13  IC50 (CHO; cell growth or viability, MTT; 72 h): > 50 µM
CCCC(CCC)C(=O)[O][Pt]([NH2])([NH2])([Cl])([Cl])[O]C(=O)C(C)c1ccc(CC(C)C)cc1 (stereo not shown)  IC50 (six human cancer lines; cytotoxicity, MTT): 1.29 µM
Cc1cc([C@H](C(=O)N2C[C@H](O)C[C@H]2C(=O)N[C@@H](CC(=O)N2CCC(N3CCC(C#Cc4ccc(C(=O)N[C@H]5C(C)(C)[C@H](Oc6ccc(C#N)c(Cl)c6)C5(C)C)cc4)CC3)CC2)c2ccc(-c3scnc3C)cc2)C(C)C)on1  IC50 (HCC1428; cell growth or viability; 7 days): 0.121 µM
Cc1cc(C)c(-n2c3c([n+](-c4c(C)cc(C)cc4C)[c]2[Au-][Cl])-c2cccc4cccc-3c24)c(C)c1  IC50 (CHO; cell growth or viability, MTT; 72 h): 28 µM
CCC(C)C1OC(=O)C(C)(C)C(=O)C(Cc2ccccc2)OC(=O)C(C(C)C)OC(=O)C(NC(=O)c2cccc(O)c2)C(C)OC1=O (stereo not shown)  IC50 (NCM460; cell growth or viability, CCK-8; 72 h): > 50 µM
CCC1=C(CC)C2=[N+]3C1=Cc1c(CC)c(CC)c4[n]1[Ir-3]31([n+]3ccccc3)([n+]3ccccc3)[n]3c(c(CC)c(CC)c3=CC3=[N+]1C(=C4)C(CC)=C3CC)=C2.Cl  IC50 (HCC827; cell growth or viability, MTT; 72 h): 1.27 µM
CC(C)=CCC1=C([O-])C(=O)c2ccccc2C1=O.CC(C)=CCC1=C([O-])C(=O)c2ccccc2C1=O.Cc1cc2cccnc2c2ncccc12.[Cu+2]  IC50 (HOS; cell viability, MTT; 24 h): 3.2 ± 0.2 µM
O=C(Nc1ccn([C@@H]2O[C@H](CO)[C@@H](O)[C@H](F)[C@H]2O)c(=O)n1)c1ccccc1  IC50 (FM3A; cell growth or viability): > 200 µM
CCCC(CCC)C(=O)[O][Pt]([Cl])([Cl])[O]C(C)=O.N.N  IC50 (seven cancer cell lines; cytotoxicity; mean over panel): 5.4 µM
Cn1[c]([Ir-3]234([NH3+])[n]5c6ccc5C(c5c(F)c(F)c(F)c(F)c5F)=C5C=CC(=[N+]52)C(c2c(F)c(F)c(F)c(F)c2F)=c2ccc([n]23)=C(c2c(F)c(F)c(F)c(F)c2F)C2=[N+]4C(=C6c3c(F)c(F)c(F)c(F)c3F)C=C2)[n+](C)c2ccccc21.F[P-](F)(F)(F)(F)F  IC50 (HCC827; cell growth or viability, MTT; 72 h): 0.55 µM
N#Cc1c(-c2cccs2)cc(-c2cccc3ccccc23)nc1Nc1ccc(Nc2nc(-c3cccc4ccccc34)cc(-c3cccs3)c2C#N)cc1  IC50 (U-937; cell growth or viability, MTT; 72 h): 0.559 µM
O=C1CCC(N2C(=O)c3cccc(NCC(=O)N4CCN(c5ccc(Nc6nc(Oc7ccccc7)c7occc7n6)cc5)CC4)c3C2=O)C(=O)N1 (stereo not shown)  IC50 (Mino; 72 h): 0.016 µM
C=C1CCC(=O)C(C)CCC2C1CC2(C)C(=O)C=CC(C)(C)O (stereo not shown)  IC50 (KPC; cell viability, CCK-8; 72 h): 12 ± 1.65 µM
C[n+]1c(/C=C/c2ccc(N(c3ccccc3)c3ccccc3)cc2)cc(/C=C2\Sc3ccccc3N2CCCN2CCCC2)c2ccccc21  IC50 (Raji; cell growth or viability; 36 h): 0.73 µM
CC(=O)OC[C@H]1O[C@@H](Oc2ccc(C#[C][Pt+])cc2)[C@H](OC(C)=O)[C@@H](OC(C)=O)[C@@H]1OC(C)=O.O=S(=O)([O-])C(F)(F)F.c1ccc(-c2cccc(-c3ccccn3)n2)nc1  IC50 (PLC; cell growth or viability; 72 h): 24.2 µM
CC(=O)Oc1ccccc1C(=O)[O][Pt]([NH2])([NH2])([Cl])([Cl])[O]C(=O)CCCc1ccccc1  IC50 (six human cancer lines; cytotoxicity, MTT): 0.46 µM
N#Cc1cccc(-c2ccc(=O)n(Cc3cccc(-c4ncc(OCC5CCN(CCCCCCC(=O)Nc6cccc7c6C(=O)N(C6CCC(=O)NC6=O)C7=O)CC5)cn4)c3)n2)c1 (stereo not shown)  IC50 (Hs746T; cell growth or viability, CCK-8; 72 h): 0.0968 µM
Cc1cc(/C=C/C#N)cc(C)c1Oc1cc(Nc2ccc(C#N)cn2)nc2cnccc12  IC50 (H69AR (multidrug resistant); 48 h): > 120 µM
C=CCSc1nc(N)c2c(F)c(C#N)c(F)c(Cl)c2n1  IC50 (SGC-7901; cell growth or viability, MTT; 96 h): 6.34 µM
O=C(Nc1ncnc2c1ncn2[C@@H]1O[C@H](CO)[C@@H](O)[C@H](F)[C@H]1O)c1ccccc1  IC50 (FM3A; cell growth or viability): > 200 µM
COc1ccc(-c2cc(=O)c3c(O)cc(O[C@@H]4O[C@H](CO)[C@@H](O)[C@H](O)[C@H]4O)cc3o2)cc1OC  IC50 (HCT-116 p53+/+; cell viability, resazurin reduction; 72 h): > 100 µM
CN1CCN(C(=O)N(CCCCCCC(=O)NO)c2ccc(-c3ccc4cnn(C)c4c3)cc2)CC1  IC50 (HH; cell growth or viability, ATP luminescence; 72 h): 0.0329 µM
Cc1cc(C#N)cc(C)c1Oc1cc(Nc2ccc(C#N)cc2)nc2ccncc12  IC50 (H69AR (multidrug resistant); 48 h): > 128 µM
O=[N+]([O-])[O-].O=[N+]([O-])[O-].[Cu+2].[Cu+2].c1ccc(-c2nc(-c3ccc4c(c3)OCO4)n[n-]2)nc1.c1ccc(-c2nc(-c3ccc4c(c3)OCO4)n[n-]2)nc1  IC50 (T24; cell growth or viability, MTT; 24 h): 3.53 µM
CC(C)(C)ONc1nc(Nc2ccnc(C(F)(F)F)c2)nc(-c2cccc(C(F)(F)F)n2)n1  IC50 (TF-1 IDH2 R140Q; 72 h): 0.0099 ± 0.0028 µM
CN1CCCNC(=O)CC2(CCCCC2)CC(=O)NCCCN(C)CCCNc2cccc3c2C(=O)c2cccc(c2C3=O)NCCC1  IC50 (ASF-4-4L2; cell proliferation, CCK-8; 48 h): > 20 µM
C[N+]1(C)CC[NH2+][Pt-2]1([OH])([OH])([Cl])[Cl]  IC50 (SW1573; cell growth or viability; 96 h): 130 µM
C[C@H](CCC=O)[C@@H]1CC[C@]2(C)C3=C(CC[C@@]12C)[C@@]1(C)CC[C@H](O)C(C)(C)[C@@H]1CC3  IC50 (SK-LU-1; cell growth or viability, SRB): 39.9 µM
C=C(C)[C@@H]1CC[C@]2(C(=O)O)CC[C@]3(C)[C@H](CC[C@@H]4[C@@]5(C)CC[C@H](O[C@@H]6O[C@@H](C)[C@H](OC)[C@@H](O)[C@H]6O)C(C)(C)[C@@H]5CC[C@]43C)[C@@H]12  IC50 (human Skin fibroblast; cell growth or viability; 48 h): 21 µM
Cc1cn([C@@H]2O[C@H](CO)[C@@H](O)[C@H](F)[C@H]2O)c(=O)[nH]c1=O  IC50 (FM3A; cell growth or viability): > 200 µM
OCCn1ncc2c(Nc3ccc(F)cc3)ncnc21  IC50 (CHO; cell growth or viability, MTT): > 50 µM
COC(=O)[C@H]1[C@H]2C[C@H]3O[C@@]4(CCN3C[C@H]2C[C@@H](OC(=O)c2cc(OC)c(OC)c(OC)c2)[C@@H]1OC)C(=O)Nc1cc(OC)ccc14  IC50 (SUP-T1; cell growth or viability, trypan blue; 72 h): 74.5 µM
CO[C@H]1O[C@H](COC(c2ccccc2)(c2ccccc2)c2ccccc2)[C@@H](OS(=O)(=O)c2ccccc2)[C@H](OS(=O)(=O)c2ccccc2)[C@H]1OS(=O)(=O)c1ccccc1  IC50 (Ehrlich; cell growth or viability, MTT): 2600 µg/mL
C=C1C(=O)OC2C1CCC1(C)CC1CCC1(C)OC21 (stereo not shown)  IC50 (B140P murine AML cells; cell growth): 13.5 ± 2.3 µM
CC1CCC(NC(=O)N(C)c2cnc3ccc(-c4ccc(OCCCCCC(=O)NO)nc4)cc3n2)CC1 (stereo not shown)  IC50 (NTERA-2-cl-D1; cell growth or viability, MTT; 48 h): 0.12 µM
COc1cccc(-c2ccc(Nc3ccc(CN(C)C)cc3)c(OC)c2F)c1  IC50 (A-375 (BRAF V600E); ERK phosphorylation, HTRF): 74.7 µM
CC/C(=C(\c1ccc(O)cc1)c1ccc(OCCN(C)CCOCCOCCN(C)CCOc2ccc(/C(=C(/CC)c3ccccc3)c3ccc(O)cc3)cc2)cc1)c1ccccc1  IC50 (MDA-MB-231 (ER-negative); cell growth; 96 h): 1.84 µM
O=C(O)C(Cc1ccccc1[N+](=O)[O-])=NNc1nc2c(s1)CS(=O)(=O)c1cc(Cl)c(Cl)cc1-2 (mixture of isomers)  IC50 (CRL-2351; cell growth, sulforhodamine B; 5 days): > 20 µM

A few entries again:
CCN(CC)CCN1C(=O)c2ccc3c4cccc5cccc(c6ccc(c2c36)C1=O)c54  IC50 (A549, PC-3, HL-60; cytotoxicity, SRB; 72 h, range over three lines): 3.1 to 7.4 µM
C=CCSc1nc(N)c2c(F)c(C#N)c(F)c(Cl)c2n1  IC50 (SGC-7901; cell growth or viability, MTT; 96 h): 6.34 µM
COc1cccc(-c2ccc(Nc3ccc(CN(C)C)cc3)c(OC)c2F)c1  IC50 (A-375 (BRAF V600E); ERK phosphorylation, HTRF): 74.7 µM
O=[N+]([O-])[O-].O=[N+]([O-])[O-].[Cu+2].[Cu+2].c1ccc(-c2nc(-c3ccc4c(c3)OCO4)n[n-]2)nc1.c1ccc(-c2nc(-c3ccc4c(c3)OCO4)n[n-]2)nc1  IC50 (T24; cell growth or viability, MTT; 24 h): 3.53 µM
